Assay results collected from several papers.

SMILES = C[C@@H](Nc1cc(F)cc(F)c1)c1cc(C(=O)N(C)C)cc2c(=O)cc(N3CCOCC3)oc12; test = item: Pneumonia; test system = advanced solid tumour patients; setting = oral, dose not given, dose finding; endpoint = patients discontinuing for AE; result = 1.6%
SMILES = CNC(=O)c1ccc(-c2cnc3ncc(Cc4ccc5ncccc5c4)n3n2)cc1F; test = item: Asthenia; test system = other cancer patients; setting = oral, 600 mg twice daily, expansion cohort, grade 3-4; endpoint = patients with adverse event; result = 0%
SMILES = C=CC(=O)Nc1cc(Nc2nccc(-c3cn(C)c4ccccc34)n2)c(OC)cc1N(C)CCN(C)C; test = item: Anemia grade ≥3; test system = EGFR-mutant MET-altered NSCLC; setting = oral, dose not given, study; endpoint = patients with treatment-related AEs; result = 0%
SMILES = O=C(Nc1nc2cccc(-c3ccc(CN4CCS(=O)(=O)CC4)cc3)n2n1)C1CC1; test system = rheumatoid arthritis patients; setting = oral, 100 mg twice daily, 4 weeks, regardless of relatedness; endpoint = patients with infections; result = 0%
SMILES = NC(=O)N1c2ccccc2C=Cc2ccccc21; test system = male patients; setting = oral, dose not given, on-treatment adverse events; endpoint = patients with Nasopharyngitis; result = 0%
SMILES = FC(F)(F)c1ccc(CNc2ccc(Cc3c[nH]c4ncc(Cl)cc34)cn2)cn1; test = item: gastroesophageal reflux disease; test system = patients with TGCT; setting = oral, 1000 mg/day, grade 3 or higher; endpoint = patients with treatment-related adverse event; result = 0%
SMILES = COc1cc(Nc2ncc3c(n2)-c2ccc(Cl)cc2C(c2c(F)cccc2OC)=NC3)ccc1C(=O)O; test = item: Hyperglycemia, grade 1; test system = cancer patients, phase 1/2; setting = oral, dose not given, together with: pembrolizumab; endpoint = patients with adverse event; result = 67%
SMILES = Cc1cc(-c2nnc(N)nc2-c2ccc(F)cc2)cc(Cl)n1; test = item: obliterative bronchiolitis; test system = IO-naive mCRPC patients, male; setting = oral, dose not given, treatment-related, grade 2; endpoint = patients with immune-mediated AE; result = 0%
SMILES = CCOc1c([C@H](C)n2nc(C)c3c(N)ncnc32)cc(Cl)c(F)c1[C@@H]1CNC(=O)C1; test = item: heart rate > 100 bpm; test system = previously treated B-cell malignancy; setting = oral, dose not given, all doses; endpoint = patients with high heart rate; result = 5.8%
SMILES = COc1ccc([C@@H](O)c2cc(-c3ncnc4cc(N5CCOCC5)ccc34)c(F)cc2Cl)nn1; test system = locally advanced rectal cancer patients; setting = 100 mg, drug-related adverse events, together with: capecitabine and radiotherapy; endpoint = patients with diarrhea; result = 67%
SMILES = Cc1cc(NC2CCN(C(=O)OC3CCN(C(=O)/C=C/CN(C)C)C3)CC2)n2ncc(C(C)C)c2n1 (centres unmarked); test = Phase I dose escalation CTCAE v4.0, item: Hypotension; test system = patients with advanced solid tumours; setting = dose not given, TIW dosing any grade; endpoint = patients with adverse event; result = 0%

Some of these lines once more:
SMILES = CNC(=O)c1ccc(-c2cnc3ncc(Cc4ccc5ncccc5c4)n3n2)cc1F; test = item: Asthenia; test system = other cancer patients; setting = oral, 600 mg twice daily, expansion cohort, grade 3-4; endpoint = patients with adverse event; result = 0%
SMILES = C=CC(=O)Nc1cc(Nc2nccc(-c3cn(C)c4ccccc34)n2)c(OC)cc1N(C)CCN(C)C; test = item: Anemia grade ≥3; test system = EGFR-mutant MET-altered NSCLC; setting = oral, dose not given, study; endpoint = patients with treatment-related AEs; result = 0%
